Experimental data from different studies.
Numbered parts are unrelated; each lists some results of a single study.

Study 1
Target: Prothrombin, mature alpha-thrombin (F2, Homo sapiens, UniProt P00734)
Method: aptamer microarray, sandwich
Form: DNA with 2'F-ANA
Medium: in vitro
Tested at: 200 nM
Setting: whole 15-mer aptamer, many near background
With: Cy3 exosite-II aptamer, 400 nM
Reading: higher = stronger binding
Oligonucleotide: GGTTGGTGTGGTTGG
For `2'F-ANA at 1 2 3 4 6 8 9 11 12 13`, “mean fluorescence intensity” read 192 a.u.
Under “mean fluorescence intensity”, `2'F-ANA at 1 2 5 9 12 13 14 15` is recorded as 49.2 a.u.
`2'F-ANA at 1 2 4 7 9 10`: “mean fluorescence intensity” 50 a.u.
`2'F-ANA at 1 2 3 12 15`: “mean fluorescence intensity” 476 a.u.
`2'F-ANA at 2 4 5 6 7 8 10 11 14`: “mean fluorescence intensity” 76.9 a.u.
Under “mean fluorescence intensity”, `2'F-ANA at 1 2 4 5 8 12 14` is recorded as 47.3 a.u.
`2'F-ANA at 3 4 5 10 11 13 14 15`: “mean fluorescence intensity” 49.3 a.u.
`2'F-ANA at 1 3 6 7 9 10 12 13 14 15`: “mean fluorescence intensity” 66.3 a.u.
`2'F-ANA at 1 4 5 6 7 11` — result for “mean fluorescence intensity”: 51.5 a.u.
`2'F-ANA at 2 4 5 8 10 13 14 15`: “mean fluorescence intensity” 51.9 a.u.
`2'F-ANA at 1 2 5 8 9 15`: “mean fluorescence intensity” 64 a.u.
`2'F-ANA at 1 3 6 8 9 11 13 15` — result for “mean fluorescence intensity”: 235 a.u.
For `2'F-ANA at 1 2 4 5 6 7 9 14 15`, “mean fluorescence intensity” read 46.7 a.u.
`2'F-ANA at 1 2 4 15` — result for “mean fluorescence intensity”: 138 a.u.
`2'F-ANA at 1 2 5 7 8 11 13 14 15` — result for “mean fluorescence intensity”: 49.4 a.u.
`2'F-ANA at 2 3 5 6 7 10 11 13 14 15` — result for “mean fluorescence intensity”: 51.7 a.u.

Study 2
Target: RNA binding protein fox-1 homolog 2, RRM domain, GST-SBP tag (RBFOX2, Homo sapiens, UniProt O43251-10, residues 100-194)
Method: RNA Bind-n-Seq
Form: RNA
Medium: in vitro
Tested at: 365 nM
Setting: natural RNA segment, single round, ends assumed
Relative to: no-protein control
Reading: higher = stronger binding
Construct (chain): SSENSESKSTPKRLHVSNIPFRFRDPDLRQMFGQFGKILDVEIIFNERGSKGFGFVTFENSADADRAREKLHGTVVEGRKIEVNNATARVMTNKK
`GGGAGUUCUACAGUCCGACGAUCUACUUUCAGGUCUGGAGUCUUCAGAUCUCUUCCUUGAGGCGGCCAGGGAGAGGAAGUCUCGCUCUCUCUCCUCACAGCCCUUGGCCCCAGCAUUUAUUCUUGGGUCCUUUUGGAAUUCUCGGGUGCCAA`: “RBNS enrichment (R)” 0.417.
`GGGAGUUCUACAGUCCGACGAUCCAAGGACUCAGAACAACAUGGCUUUUUGAUCGGUACCAACCGACCUACAUCAAUUAGUUAUUGGACUUCACAAAGAUUUGCCGCUGUGGAUCAAACAGGACCACCUCCCUUGGAAUUCUCGGGUGCCAA`: “RBNS enrichment (R)” 0.236.
`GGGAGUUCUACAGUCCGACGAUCUUUCUGAAGCCUGCUUUUAUACCGGAUGUUCUAUAAAUUAUAACUUUUAAAGUUGGGCUUUUUAAUUACUUUACAAAUACCCAUGAGUGGGACAGAUGUUCUGAACCUGGUGGAAUUCUCGGGUGCCAA`: “RBNS enrichment (R)” 0.556.
Under “RBNS enrichment (R)”, `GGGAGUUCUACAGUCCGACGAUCAAAUUGUCCUUUUGAUACCAUCAUCUUGUUUUCUUUUUGUAGGUAUAAAUAAAAACACUGUUGACAAAAGGUGUGAGCUUUUAUUGCUUAAUUCUCUGAAUAAUUCAACGUGGAAUUCUCGGGUGCCAA` is recorded as 0.368.
Under “RBNS enrichment (R)”, `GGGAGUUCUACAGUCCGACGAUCGAGAGCGCAGACCUAUUUCUAGCCACUCCUGUUGACAGUGCGCCUGAAGGGCCGGGCGUGCCUCUCUUGGUGUUGCAUGCUCGUGACACUCAAGAAAUUUUGAACUGAUGUGGAAUUCUCGGGUGCCAA` is recorded as 4.65.
`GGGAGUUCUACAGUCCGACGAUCAGCAGUGGCUUUUCACAGACAAAGUCAUAAUGCCCUGCAGUCUUGGGCUCAAGCGAUUCUCUCUUCCUUGGCCUCUGGAGUAGACUAAAUGUGUUAGUCUUUGAAUGGAAUGGAAUUCUCGGGUGCCAA`: “RBNS enrichment (R)” 9.29.
For `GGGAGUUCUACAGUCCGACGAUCUAACAGGUUAGCUAAAAUUGGGAGCAUGCCUUAAAACUUAAAGAUUGUAUGCAUAUAUGUGUAUAUGUUAUAAACGUGAAAUAUAUUUGACACACACAUUCACAUAUAAAUGGAAUUCUCGGGUGCCAA`, “RBNS enrichment (R)” read 0.778.
`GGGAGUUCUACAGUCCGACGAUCAUGCUACAGAAUGAAAGUUUGUAAUUGAAAGAAAAAGAAUGUAUUCAUCUGCUUCUUGGGUUUAAGCACACACCUGAAGGGGAGAUAUUGGGGGACACGGUGGCCACUCGUGGAAUUCUCGGGUGCCAA`: “RBNS enrichment (R)” 6.01.

Study 3
Target: Sal-like protein 4, full length isoform A (SALL4, Homo sapiens, UniProt Q9UJQ4, residues 1-1053)
Sequence of UniProt Q9UJQ4 (whole entry, looked up): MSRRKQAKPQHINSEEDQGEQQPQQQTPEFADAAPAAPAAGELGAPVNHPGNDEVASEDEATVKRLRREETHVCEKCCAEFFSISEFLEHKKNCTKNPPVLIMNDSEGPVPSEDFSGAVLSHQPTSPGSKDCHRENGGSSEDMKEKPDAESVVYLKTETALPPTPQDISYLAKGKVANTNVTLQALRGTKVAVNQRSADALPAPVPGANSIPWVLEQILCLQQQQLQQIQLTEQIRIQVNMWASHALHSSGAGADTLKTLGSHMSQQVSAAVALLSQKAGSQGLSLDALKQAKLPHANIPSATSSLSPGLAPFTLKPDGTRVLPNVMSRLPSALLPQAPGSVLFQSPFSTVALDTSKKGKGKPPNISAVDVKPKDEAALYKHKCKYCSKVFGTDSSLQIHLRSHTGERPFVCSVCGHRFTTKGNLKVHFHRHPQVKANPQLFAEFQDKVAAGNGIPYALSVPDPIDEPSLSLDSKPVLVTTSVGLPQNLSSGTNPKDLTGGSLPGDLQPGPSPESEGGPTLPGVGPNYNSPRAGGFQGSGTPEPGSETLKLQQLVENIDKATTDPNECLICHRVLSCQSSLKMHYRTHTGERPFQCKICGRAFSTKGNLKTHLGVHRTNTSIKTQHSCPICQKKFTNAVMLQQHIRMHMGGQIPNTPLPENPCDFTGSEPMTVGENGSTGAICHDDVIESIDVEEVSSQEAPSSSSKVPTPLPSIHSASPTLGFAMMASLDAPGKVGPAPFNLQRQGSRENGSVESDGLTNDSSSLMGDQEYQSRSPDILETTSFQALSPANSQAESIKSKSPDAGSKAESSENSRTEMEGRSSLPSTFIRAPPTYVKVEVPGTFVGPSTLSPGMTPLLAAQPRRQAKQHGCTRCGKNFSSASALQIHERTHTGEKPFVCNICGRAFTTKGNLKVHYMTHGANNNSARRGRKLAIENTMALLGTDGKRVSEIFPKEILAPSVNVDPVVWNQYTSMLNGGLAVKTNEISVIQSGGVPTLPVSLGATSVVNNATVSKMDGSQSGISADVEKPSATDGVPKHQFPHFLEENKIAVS
Method: universal PBM
Form: double-stranded DNA, one strand shown
Medium: in vitro
Tested at: 600 nM
Setting: 8-mer, flanks averaged, mean of replicates
Reading: higher = stronger binding
`CCTTGGTA` has an E-score of -0.00846.
`ACCTACCT` gave an E-score of -0.0343.
`AGATGGAT` gave an E-score of -0.101.
With `GTAGAAAA` the E-score was 0.233.
The E-score of `GTTCAACA` is reported as 0.0528.
`GAATGTAC` gave an E-score of -0.0417.
`CATAACCC` has an E-score of 0.105.
The E-score of `CGGATTAG` is reported as -0.0289.
The E-score of `CCGGACTC` is reported as -0.157.
For `GGGTCACC`, the E-score was -0.348.
With `CATATTAA` the E-score was 0.417.
For `ACCCCGGT`, the E-score was -0.323.
With `CTTTAGTC` the E-score was 0.0398.
The E-score of `AAAGCATG` is reported as 0.0716.
The E-score of `GCGTTAGA` is reported as 0.0254.
The E-score of `GGATAGTA` is reported as 0.208.
`AGTTGTGA` has an E-score of 0.209.
`CGGTATAC` has an E-score of -0.117.
`TCGACAAA` gave an E-score of 0.137.
`CCTCAGGA` has an E-score of -0.183.
`ATTTCAAG` has an E-score of 0.243.
`AAAGGCGA` gave an E-score of -0.0294.

Further values, each from its own experiment
Read-out: peptide binding
Form: peptide
Reading: direction not given
`PSSMRKICTYFHR` has an enrichment score of -2.5 (Cln2 (Saccharomyces cerevisiae); competitive growth sequencing; Saccharomyces cerevisiae, unfused Cln2 strain; mutational scanning library 2).
`GSPLAKAFTSTGL` gave an enrichment score of 0.147 (Saccharomyces cerevisiae; yeast competitive growth sequencing; cyclin F-Cln2 fusion; library 1).

A few entries again (study 1):
For `2'F-ANA at 1 2 4 5 6 7 9 14 15`, “mean fluorescence intensity” read 46.7 a.u.
`2'F-ANA at 1 3 6 7 9 10 12 13 14 15`: “mean fluorescence intensity” 66.3 a.u.
Under “mean fluorescence intensity”, `2'F-ANA at 1 2 4 5 8 12 14` is recorded as 47.3 a.u.
Under “mean fluorescence intensity”, `2'F-ANA at 1 2 5 9 12 13 14 15` is recorded as 49.2 a.u.
`2'F-ANA at 1 2 5 7 8 11 13 14 15` — result for “mean fluorescence intensity”: 49.4 a.u.
`2'F-ANA at 1 4 5 6 7 11` — result for “mean fluorescence intensity”: 51.5 a.u.
